Measurements from different studies.
Each numbered part is a random draw from the data of one study; scales do not carry over between parts. Substitutions count along the parent as printed.

Set 1
Target: RNA binding protein fox-1 homolog 2, RRM domain, GST-SBP tag (RBFOX2, Homo sapiens, UniProt O43251-10, residues 100-194)
Technique: RNA Bind-n-Seq
Molecule type: RNA
Medium: in vitro
Tested at: 365 nM
Setting: natural RNA segment, single round, ends assumed
Baseline: no-protein control
Reading: higher = stronger binding
All sequences stand within: GGGAGUUCUACAGUCCGACGAUC … UGGAAUUCUCGGGUGCCAA
Construct (chain): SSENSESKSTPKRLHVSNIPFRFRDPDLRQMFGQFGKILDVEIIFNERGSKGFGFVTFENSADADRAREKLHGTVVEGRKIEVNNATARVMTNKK
Sequence | RBNS enrichment (R)
AUUGGUUUUGUGUCCGAGGCUUGUUCCAAGUUUGUCAAUGAGGUUUAUGGAGCCUCCAGAACAGAUGCCAUCUUCCUGAAUGUUGACAUGCCAGUGGGUGUGACUCCUUC | 0.546
UGGCCACAACACAUAAGGUGCCCCGGGUGGCAGCCAUCACAGUAACUUCCAGGUGGUCUCCUGAGUGUCUGGCUUGAUAAUGCCCUCAAUUCAGGAGUGAGCCUCUGUGA | 0.407
AAGGGAAAUGCAGUUUUUUAAUAGGCUUAUCCAGGAAAUGUUACAGUCUCUUUAACGACAGCUAUAGAUGCUGGAUGUGUUCCGAUGACUUAGGUCAUGUCACAUUGUUG | 0.286
AGGGUGAGACUGGCGUGCAGGCGUGUGACGGUGUGUUUGGAGUAUUGCCAUUCCCAUCGCUGUUAGCUCUAGAGCACAUCCAGAGCAUACGUUUACAGAGGAAACUUGAU | 0.502
CAUGCAAGAGGUAGGGGGGUAAAGAAUAAGUAGUCCUAUCAAUCAGGUAUAAGUUGUUUCAAGAGAGAAGAUUCACCAAAACUUGGAUCUCACCCCAUUCCAAACCCAAC | 1.61
CAGCAUGACCAGAAUAAGACGUUCAUGAGCUUGAAGAUUUGUGUACACAGCCCUCUUUCCGUUGUCCCUGGAAUGAUACUGGCCAGAAGCUGGAGAAUAAACAGGUACUG | 0.608
GGCUAACUUUCACAAAACUGUCUUGCCUCUUUUAAACAUUACACUUGAUACGAGAAAUAUGGCUUAAGAACACAUGAUGUCUCAGAAGGCCCAUGCGCACACCAGACCGC | 0.448
CUCUGCCGCCACUGUUUUCAUUGUUGUGUUCUCGUUGUGAUUGUUAAGACUCACACUCCUGGCUCAGCAGUGGUUUUCCAGAAGGCCCAAAGAGCGGUGCCGGGCACCCC | 0.24

Set 2
Target: CCNB3, cyclin fold, Cln2 fusion (human)
Technique: yeast growth competition, sequencing
Medium: yeast
Setting: weak parent motif
Baseline: not given
Reading: higher = stronger binding
Parent: PKN2 docking peptide (human); VSAVQKLDFSDTM
Substitution | normalised enrichment score
S10W | 0.274
A3F | 0.128
M13H | 0.29
S10F | 0.0733
V4W | 0.226
D8N | -0.0392
S10M | 0.366
S2M | 0.264

Set 3
Target: ABI1, truncated, D143A, DHFR fusion (Arabidopsis thaliana)
Technique: DHFR PCA, deep sequencing
Medium: yeast
Setting: methotrexate growth selection, single substitutions
Together with: (+)-ABA 710 µM
Baseline: wild-type fitted maximum
Reading: higher = stronger binding
Parent: PYL1, truncated, DHFR fusion (Arabidopsis thaliana); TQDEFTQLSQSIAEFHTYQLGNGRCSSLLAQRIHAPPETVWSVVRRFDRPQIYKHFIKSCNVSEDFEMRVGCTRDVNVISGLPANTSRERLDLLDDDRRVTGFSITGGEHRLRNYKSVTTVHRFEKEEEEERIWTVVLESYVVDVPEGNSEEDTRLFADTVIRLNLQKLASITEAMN
Substitution | relative binding score [%]
V44D | -7.43
Y115E | -0.869
E64W | 94.1
L91F | 37.6
E14M | 93.5
V143M | 88.2
I79Q | 107

Further values, each from its own experiment
Molecule | target | assay | system | setting | how to read | measurement | value
PhoQ, residues 284 288 289 292 302 303 AANNSF | PhoP, residues 12 14 15 18 19 YHFSH (Escherichia coli, UniProt P23836) | Sort-seq, item: YFP reporter | E. coli | PhoQ-PhoP variant library, together with: 10 µM Mg2+ | baseline: high Mg2+ state, higher = stronger signaling | fold induction | 10.6

A few entries again (set 2):
Substitution | normalised enrichment score
D8N | -0.0392
A3F | 0.128
